Published values pooled from the literature.
Every numbered part comes from another study and shows a few of its results, in no order.
Sequence of UniProt Q9H4A3 (whole entry, looked up): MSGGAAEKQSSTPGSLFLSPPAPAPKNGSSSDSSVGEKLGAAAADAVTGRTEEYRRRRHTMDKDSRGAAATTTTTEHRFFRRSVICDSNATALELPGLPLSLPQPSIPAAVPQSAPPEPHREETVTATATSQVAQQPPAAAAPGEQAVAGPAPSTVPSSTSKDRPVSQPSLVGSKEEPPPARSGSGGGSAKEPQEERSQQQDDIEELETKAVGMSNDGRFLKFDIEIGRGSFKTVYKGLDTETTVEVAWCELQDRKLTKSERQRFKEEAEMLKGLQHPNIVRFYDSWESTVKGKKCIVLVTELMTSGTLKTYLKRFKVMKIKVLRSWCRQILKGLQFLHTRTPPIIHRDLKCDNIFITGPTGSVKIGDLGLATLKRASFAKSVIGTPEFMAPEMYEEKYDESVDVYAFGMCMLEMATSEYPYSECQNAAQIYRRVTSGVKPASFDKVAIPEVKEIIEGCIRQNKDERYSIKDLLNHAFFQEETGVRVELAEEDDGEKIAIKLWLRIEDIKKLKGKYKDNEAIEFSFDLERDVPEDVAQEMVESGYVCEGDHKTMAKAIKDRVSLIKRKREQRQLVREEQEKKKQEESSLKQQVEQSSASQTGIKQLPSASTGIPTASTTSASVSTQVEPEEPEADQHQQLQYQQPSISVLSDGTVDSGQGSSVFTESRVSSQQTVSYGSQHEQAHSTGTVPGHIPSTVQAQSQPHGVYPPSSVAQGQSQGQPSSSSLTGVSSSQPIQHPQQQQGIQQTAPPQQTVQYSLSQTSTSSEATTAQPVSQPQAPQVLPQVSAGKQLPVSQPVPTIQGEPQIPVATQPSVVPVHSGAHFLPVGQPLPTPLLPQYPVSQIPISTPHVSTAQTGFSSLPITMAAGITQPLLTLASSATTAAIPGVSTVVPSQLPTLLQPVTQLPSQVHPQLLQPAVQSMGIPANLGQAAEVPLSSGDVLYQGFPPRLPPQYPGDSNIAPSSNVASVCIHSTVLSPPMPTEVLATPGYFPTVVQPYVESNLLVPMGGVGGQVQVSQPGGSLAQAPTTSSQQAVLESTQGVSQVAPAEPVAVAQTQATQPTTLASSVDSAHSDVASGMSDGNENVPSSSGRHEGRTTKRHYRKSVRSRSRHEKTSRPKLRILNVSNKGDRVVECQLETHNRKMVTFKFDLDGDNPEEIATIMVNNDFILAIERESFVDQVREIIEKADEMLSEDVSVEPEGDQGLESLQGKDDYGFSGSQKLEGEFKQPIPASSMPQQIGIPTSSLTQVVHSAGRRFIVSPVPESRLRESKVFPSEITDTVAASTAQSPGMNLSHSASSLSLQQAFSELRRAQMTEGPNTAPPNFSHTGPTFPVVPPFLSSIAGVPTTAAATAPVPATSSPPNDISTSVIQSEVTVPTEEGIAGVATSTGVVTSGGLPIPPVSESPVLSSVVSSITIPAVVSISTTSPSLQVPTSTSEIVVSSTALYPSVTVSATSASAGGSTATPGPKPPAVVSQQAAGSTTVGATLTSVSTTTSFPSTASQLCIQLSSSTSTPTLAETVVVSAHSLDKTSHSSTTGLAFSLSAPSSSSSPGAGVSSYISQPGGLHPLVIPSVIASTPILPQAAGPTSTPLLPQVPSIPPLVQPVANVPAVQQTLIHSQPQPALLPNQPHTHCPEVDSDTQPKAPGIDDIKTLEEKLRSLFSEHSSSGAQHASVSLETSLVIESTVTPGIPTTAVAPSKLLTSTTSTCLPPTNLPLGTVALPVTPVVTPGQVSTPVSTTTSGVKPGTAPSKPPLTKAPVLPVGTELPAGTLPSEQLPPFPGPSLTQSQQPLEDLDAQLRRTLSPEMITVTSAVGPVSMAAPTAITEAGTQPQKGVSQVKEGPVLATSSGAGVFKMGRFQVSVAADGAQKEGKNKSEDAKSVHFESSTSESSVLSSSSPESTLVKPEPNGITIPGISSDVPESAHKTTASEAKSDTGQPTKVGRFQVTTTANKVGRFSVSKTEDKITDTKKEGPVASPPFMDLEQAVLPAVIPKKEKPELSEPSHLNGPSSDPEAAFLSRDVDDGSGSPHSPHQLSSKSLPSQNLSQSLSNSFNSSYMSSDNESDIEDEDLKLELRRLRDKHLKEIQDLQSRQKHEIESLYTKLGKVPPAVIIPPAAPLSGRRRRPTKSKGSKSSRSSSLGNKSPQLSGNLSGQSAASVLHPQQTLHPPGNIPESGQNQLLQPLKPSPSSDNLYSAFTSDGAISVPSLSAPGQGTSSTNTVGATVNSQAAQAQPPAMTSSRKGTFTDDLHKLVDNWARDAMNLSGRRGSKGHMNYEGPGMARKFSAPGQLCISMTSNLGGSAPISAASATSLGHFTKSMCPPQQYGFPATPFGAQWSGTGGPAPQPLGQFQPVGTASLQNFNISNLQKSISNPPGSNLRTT
Sequence of UniProt P48730 (whole entry, looked up): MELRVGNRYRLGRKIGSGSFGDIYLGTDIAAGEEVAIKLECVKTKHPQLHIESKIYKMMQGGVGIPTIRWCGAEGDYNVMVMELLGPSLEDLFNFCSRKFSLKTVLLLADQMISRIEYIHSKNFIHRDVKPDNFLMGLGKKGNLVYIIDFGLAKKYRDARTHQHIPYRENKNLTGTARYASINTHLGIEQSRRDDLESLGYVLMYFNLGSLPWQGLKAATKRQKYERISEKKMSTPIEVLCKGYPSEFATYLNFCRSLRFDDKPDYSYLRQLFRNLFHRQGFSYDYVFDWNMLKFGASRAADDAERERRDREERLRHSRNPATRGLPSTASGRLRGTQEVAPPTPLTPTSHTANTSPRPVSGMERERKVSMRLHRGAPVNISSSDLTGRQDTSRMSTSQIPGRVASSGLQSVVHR
Sequence of UniProt P11362 (whole entry, looked up): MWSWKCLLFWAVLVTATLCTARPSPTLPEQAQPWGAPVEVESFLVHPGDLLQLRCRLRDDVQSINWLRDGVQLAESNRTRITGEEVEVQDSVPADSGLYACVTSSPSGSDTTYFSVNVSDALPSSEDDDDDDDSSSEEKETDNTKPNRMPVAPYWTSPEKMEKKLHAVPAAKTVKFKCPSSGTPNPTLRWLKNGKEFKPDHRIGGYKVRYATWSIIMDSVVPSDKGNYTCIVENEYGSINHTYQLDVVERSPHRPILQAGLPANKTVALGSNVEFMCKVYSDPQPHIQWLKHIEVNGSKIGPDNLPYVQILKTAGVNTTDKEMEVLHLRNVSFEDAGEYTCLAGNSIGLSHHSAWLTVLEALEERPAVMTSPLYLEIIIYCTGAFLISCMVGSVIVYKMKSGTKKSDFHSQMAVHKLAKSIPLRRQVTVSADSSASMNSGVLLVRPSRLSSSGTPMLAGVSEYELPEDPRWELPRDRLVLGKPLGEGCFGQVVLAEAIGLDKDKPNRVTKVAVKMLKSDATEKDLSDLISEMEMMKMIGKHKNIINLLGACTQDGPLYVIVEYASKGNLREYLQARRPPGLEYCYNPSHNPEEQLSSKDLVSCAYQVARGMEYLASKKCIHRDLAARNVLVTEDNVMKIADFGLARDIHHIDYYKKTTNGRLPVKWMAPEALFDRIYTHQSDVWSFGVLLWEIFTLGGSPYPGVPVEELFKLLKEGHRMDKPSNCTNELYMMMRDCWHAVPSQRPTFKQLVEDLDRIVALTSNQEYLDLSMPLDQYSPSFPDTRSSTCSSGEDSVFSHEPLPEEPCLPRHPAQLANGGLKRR
Sequence of UniProt Q9BWU1 (whole entry, looked up): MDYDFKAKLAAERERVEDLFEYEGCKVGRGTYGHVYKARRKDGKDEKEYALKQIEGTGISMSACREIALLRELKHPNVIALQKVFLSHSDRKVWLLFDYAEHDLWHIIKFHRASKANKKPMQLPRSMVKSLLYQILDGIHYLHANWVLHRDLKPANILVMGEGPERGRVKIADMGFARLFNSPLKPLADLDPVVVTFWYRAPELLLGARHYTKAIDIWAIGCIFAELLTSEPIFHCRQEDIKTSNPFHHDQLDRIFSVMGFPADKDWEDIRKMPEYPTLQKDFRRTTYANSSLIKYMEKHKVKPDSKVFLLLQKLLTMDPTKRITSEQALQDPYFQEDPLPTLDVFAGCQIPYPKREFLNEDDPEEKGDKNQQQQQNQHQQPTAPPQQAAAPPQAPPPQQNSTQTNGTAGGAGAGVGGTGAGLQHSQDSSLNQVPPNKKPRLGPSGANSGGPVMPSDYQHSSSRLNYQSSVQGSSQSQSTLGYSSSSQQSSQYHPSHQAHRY

Study 1
Target: Serine/threonine-protein kinase Sgk1 (SGK1, Homo sapiens, UniProt O00141)
Sequence of UniProt O00141 (whole entry, looked up): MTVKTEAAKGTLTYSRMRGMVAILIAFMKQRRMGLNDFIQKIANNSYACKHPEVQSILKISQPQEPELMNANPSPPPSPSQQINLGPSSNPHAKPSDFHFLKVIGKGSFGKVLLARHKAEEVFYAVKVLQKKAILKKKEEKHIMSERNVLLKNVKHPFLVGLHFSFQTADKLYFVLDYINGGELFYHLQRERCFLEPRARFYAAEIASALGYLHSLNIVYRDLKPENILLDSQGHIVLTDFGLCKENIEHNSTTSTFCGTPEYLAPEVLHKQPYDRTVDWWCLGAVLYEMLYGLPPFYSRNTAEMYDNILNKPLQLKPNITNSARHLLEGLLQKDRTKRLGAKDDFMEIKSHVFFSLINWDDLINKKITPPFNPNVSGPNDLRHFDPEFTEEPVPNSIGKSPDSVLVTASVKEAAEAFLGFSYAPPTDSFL
Observed: enzyme activity
Mode: inhibitor
Concentration: 0.5 µM
Reference: control
Compound	remaining activity [%]
CC(C)(C)n1nc(Cc2cccc3ccccc23)c2c(N)ncnc21	102
Cc1cc(Nc2nc(-c3ccccc3)nc3ccccc23)n[nH]1	95.5
CC[n+]1c(/C=C/N(C)c2ccccc2)n(-c2ccccc2)c2ccc(-c3nc4ccccc4s3)cc21	97.2
CSc1nc(-c2ccnc(N[C@@H](C)c3ccccc3)c2)c(-c2ccc(F)cc2)[nH]1 (racemic)	97.3
CC#CC(=O)Nc1cc2c(Nc3ccc(F)c(Cl)c3)ncnc2cn1	95.6
Oc1ccc(Nc2nc(-c3ccc(Cl)cc3)cs2)cc1	106
O=C1NC(=O)C(c2c[nH]c3ccccc23)=C1c1c[nH]c2ccccc12	105
Fc1ccc(-c2nc3n(c2-c2ccncc2)CCS3)cc1	100
Nc1nc(Nc2ccc(S(N)(=O)=O)cc2)nn1C(=O)c1c(F)cccc1F	93
CC(=O)c1ccc(N2CCOCC2)cc1O	97.2
Cc1cncc2cccc(S(=O)(=O)N3CCCN(C(=O)CN)C[C@@H]3C)c12	102
COc1cc(Nc2c(C#N)cnc3cc(OCCCN4CCN(C)CC4)c(OC)cc23)c(Cl)cc1Cl	126
O=C1Cc2c([nH]c3ccc([N+](=O)[O-])cc23)-c2ccccc2N1	96
Nc1ncnc2c1cnn2-c1ccccc1	90.9
O=S(=O)(NCCNC/C=C/c1ccc(Br)cc1)c1cccc2cnccc12	93.2
NC(=O)c1ccc(N(C(N)=O)c2c(F)cccc2F)nc1-c1ccc(F)cc1F	121
N#CC(=C(N)Sc1ccc(N)cc1)c1ccccc1C(F)(F)F	102
CCc1[nH]c(-c2ccc(OC)cc2)nc1-c1ccncc1	104
CCCC(=O)Oc1ccc2[nH]c(C(=O)c3cc4ccccc4[nH]3)cc2c1	97

Study 2
Target: Prothrombin, mature alpha-thrombin (F2, Homo sapiens, UniProt P00734)
Technique: aptamer microarray, sandwich
Molecule type: DNA with 2'F-ANA
Sample: in vitro
Concentration: 200 nM
Setting: whole 15-mer aptamer, many near background
Added: Cy3 exosite-II aptamer, 400 nM
Direction: higher = stronger binding
Oligonucleotide: GGTTGGTGTGGTTGG
Modification	mean fluorescence intensity [a.u.]
2'F-ANA at 2 3 6 7 8 9 10 11 13	294
2'F-ANA at 2 5 7 8 9 12 15	164
2'F-ANA at 1 2 3 5 6 10 13	46.7
2'F-ANA at 1 4 5 7 8 11 12	83.3
2'F-ANA at 1 5 7 10	45
2'F-ANA at 9 11 14 15	192
2'F-ANA at 1 4 5 7 8 10 13 14	41.7
2'F-ANA at 1 4 6 7 8 10 15	53.9

Study 3
Host: mouse
Sample: microsomes or S9
Concentration: 2 µM
Time: 0.5 h
SMILES	remaining compound [%]
Cn1ncc2c(NCCO)nc(Nc3cccc(F)c3)nc21	2.04
Cc1nn(C)c(C)c1-c1cc(C(=O)NCCc2c[nH]c3ccccc23)[nH]n1	54.5
Nc1nc(N(Cc2ccco2)Cc2ccco2)c2[nH]cnc2n1	19.4
Cn1cc(NC(=O)N2CCCC(S(=O)(=O)N3CCc4ccccc43)C2)cn1 (centres unmarked)	19.9
C[C@]12CC[C@@H]3c4ccc(O)cc4CC[C@H]3[C@@H]1CC[C@@H]2O	90.3
CN(C)c1nc2n(c(=O)n1)CCN2C(=O)Nc1ccccc1	20.5
Cc1cc(CO)cc(Oc2nc(Cl)nc(Cl)c2C(C)C)c1	1.09
O=c1oc2ncn(-c3ccccc3)c2c2ccccc12	1.15

Study 4
SMILES: O=C(N1CCS(=O)(=O)CC1)N1C[C@H](c2ccc(OC(F)(F)F)cc2)C[C@H](c2nc(C3CC3)no2)C1
Concentration: 1 µM
target	observed	technique	remaining binding
CDK11A (Homo sapiens, UniProt Q9UQ88)	cell-free assay	competition with immobilised ligand	0%
WNK1 (Homo sapiens, UniProt Q9H4A3)	cell-free assay	competition with immobilised ligand	100%
CSNK1D (Homo sapiens, UniProt P48730)	cell-free assay	competition with immobilised ligand	100%
CDK19 (Homo sapiens, UniProt Q9BWU1)	–	competition binding	100%
FGFR1 (Homo sapiens, UniProt P11362)	cell-free assay	competition with immobilised ligand	100%

Mixed results
Structure (SMILES)	pH	endpoint	result
CC(C)C[C@@H]1NC(=O)[C@H](CC(C)C)NC(=O)[C@H](CC(C)C)NC(=O)[C@H](C(C)C)NC(=O)[C@H](C)NC(=O)[C@H](C)NC(=O)[C@H](CCC(=O)N2CCCC2)NC1=O	pH 7.4	logD	-2.36

For quick reference, copied from above (study 1):
Compound	remaining activity [%]
Oc1ccc(Nc2nc(-c3ccc(Cl)cc3)cs2)cc1	106
O=C1NC(=O)C(c2c[nH]c3ccccc23)=C1c1c[nH]c2ccccc12	105
Fc1ccc(-c2nc3n(c2-c2ccncc2)CCS3)cc1	100
Nc1nc(Nc2ccc(S(N)(=O)=O)cc2)nn1C(=O)c1c(F)cccc1F	93
CC(=O)c1ccc(N2CCOCC2)cc1O	97.2
Cc1cncc2cccc(S(=O)(=O)N3CCCN(C(=O)CN)C[C@@H]3C)c12	102
